Measurements gathered from unrelated publications.
Each numbered part is a random draw from the data of one study; scales do not carry over between parts. Several values in a cell are separate wells, animals, samples, runs or records. Converted amounts (≈) assume the structure as drawn.
UniProt P15056, sequence (whole entry, looked up): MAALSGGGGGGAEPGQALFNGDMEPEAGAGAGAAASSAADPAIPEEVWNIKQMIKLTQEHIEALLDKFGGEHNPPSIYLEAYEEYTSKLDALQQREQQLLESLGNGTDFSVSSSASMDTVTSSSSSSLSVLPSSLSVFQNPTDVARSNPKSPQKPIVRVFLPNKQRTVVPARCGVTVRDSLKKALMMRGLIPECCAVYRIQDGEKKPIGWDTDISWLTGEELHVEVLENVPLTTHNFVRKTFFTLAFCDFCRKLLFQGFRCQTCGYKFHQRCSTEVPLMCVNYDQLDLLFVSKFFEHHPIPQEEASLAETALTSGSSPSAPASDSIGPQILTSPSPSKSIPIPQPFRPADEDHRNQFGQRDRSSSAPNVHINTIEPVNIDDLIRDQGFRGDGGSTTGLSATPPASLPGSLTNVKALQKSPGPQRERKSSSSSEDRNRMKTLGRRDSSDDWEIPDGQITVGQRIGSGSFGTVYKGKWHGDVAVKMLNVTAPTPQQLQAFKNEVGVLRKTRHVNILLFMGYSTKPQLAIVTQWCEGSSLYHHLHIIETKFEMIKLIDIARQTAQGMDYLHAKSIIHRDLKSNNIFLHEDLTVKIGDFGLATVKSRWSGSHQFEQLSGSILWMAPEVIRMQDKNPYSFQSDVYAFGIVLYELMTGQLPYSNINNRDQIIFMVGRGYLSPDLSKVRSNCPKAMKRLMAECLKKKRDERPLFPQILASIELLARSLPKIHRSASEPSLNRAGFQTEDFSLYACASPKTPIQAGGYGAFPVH
UniProt P27361, sequence (whole entry, looked up): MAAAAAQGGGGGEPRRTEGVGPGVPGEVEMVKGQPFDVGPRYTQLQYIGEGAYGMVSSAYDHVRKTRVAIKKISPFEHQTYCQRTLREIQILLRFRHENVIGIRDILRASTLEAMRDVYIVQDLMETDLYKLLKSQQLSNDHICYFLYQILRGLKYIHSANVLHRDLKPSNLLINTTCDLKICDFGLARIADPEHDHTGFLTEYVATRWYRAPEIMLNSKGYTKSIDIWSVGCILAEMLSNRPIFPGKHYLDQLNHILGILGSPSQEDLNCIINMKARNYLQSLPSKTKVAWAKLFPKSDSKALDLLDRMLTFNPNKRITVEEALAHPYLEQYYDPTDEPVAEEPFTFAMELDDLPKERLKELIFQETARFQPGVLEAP
UniProt Q05655, sequence (whole entry, looked up): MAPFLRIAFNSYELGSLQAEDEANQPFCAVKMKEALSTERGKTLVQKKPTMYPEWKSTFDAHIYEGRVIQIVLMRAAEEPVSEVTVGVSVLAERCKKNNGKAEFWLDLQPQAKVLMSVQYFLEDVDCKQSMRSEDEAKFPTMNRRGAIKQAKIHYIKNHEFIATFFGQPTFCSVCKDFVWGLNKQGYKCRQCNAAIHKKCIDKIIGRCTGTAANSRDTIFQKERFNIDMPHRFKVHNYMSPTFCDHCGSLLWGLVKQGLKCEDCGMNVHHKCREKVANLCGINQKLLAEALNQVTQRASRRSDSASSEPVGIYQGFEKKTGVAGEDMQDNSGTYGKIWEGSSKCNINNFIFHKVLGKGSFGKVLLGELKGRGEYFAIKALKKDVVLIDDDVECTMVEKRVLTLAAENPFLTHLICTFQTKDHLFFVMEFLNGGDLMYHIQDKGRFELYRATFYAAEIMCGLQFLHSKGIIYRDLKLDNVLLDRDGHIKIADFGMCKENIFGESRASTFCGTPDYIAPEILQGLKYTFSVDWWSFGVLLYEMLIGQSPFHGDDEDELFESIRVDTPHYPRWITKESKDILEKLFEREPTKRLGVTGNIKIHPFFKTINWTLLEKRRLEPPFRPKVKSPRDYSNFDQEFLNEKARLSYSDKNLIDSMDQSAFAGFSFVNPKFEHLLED
UniProt Q15208, sequence (whole entry, looked up): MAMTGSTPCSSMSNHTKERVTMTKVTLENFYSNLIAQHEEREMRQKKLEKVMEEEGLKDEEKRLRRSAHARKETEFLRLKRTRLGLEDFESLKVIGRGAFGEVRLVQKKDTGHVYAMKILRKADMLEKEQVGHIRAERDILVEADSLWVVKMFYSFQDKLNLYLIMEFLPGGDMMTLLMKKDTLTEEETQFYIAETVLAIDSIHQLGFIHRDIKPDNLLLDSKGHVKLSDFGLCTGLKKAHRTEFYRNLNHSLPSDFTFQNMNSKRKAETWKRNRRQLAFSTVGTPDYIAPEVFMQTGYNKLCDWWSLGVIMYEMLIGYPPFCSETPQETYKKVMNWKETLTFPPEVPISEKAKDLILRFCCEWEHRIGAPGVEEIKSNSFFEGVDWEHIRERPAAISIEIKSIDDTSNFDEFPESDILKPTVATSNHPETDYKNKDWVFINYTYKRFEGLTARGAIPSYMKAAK
UniProt P42336, sequence (whole entry, unmodified, looked up): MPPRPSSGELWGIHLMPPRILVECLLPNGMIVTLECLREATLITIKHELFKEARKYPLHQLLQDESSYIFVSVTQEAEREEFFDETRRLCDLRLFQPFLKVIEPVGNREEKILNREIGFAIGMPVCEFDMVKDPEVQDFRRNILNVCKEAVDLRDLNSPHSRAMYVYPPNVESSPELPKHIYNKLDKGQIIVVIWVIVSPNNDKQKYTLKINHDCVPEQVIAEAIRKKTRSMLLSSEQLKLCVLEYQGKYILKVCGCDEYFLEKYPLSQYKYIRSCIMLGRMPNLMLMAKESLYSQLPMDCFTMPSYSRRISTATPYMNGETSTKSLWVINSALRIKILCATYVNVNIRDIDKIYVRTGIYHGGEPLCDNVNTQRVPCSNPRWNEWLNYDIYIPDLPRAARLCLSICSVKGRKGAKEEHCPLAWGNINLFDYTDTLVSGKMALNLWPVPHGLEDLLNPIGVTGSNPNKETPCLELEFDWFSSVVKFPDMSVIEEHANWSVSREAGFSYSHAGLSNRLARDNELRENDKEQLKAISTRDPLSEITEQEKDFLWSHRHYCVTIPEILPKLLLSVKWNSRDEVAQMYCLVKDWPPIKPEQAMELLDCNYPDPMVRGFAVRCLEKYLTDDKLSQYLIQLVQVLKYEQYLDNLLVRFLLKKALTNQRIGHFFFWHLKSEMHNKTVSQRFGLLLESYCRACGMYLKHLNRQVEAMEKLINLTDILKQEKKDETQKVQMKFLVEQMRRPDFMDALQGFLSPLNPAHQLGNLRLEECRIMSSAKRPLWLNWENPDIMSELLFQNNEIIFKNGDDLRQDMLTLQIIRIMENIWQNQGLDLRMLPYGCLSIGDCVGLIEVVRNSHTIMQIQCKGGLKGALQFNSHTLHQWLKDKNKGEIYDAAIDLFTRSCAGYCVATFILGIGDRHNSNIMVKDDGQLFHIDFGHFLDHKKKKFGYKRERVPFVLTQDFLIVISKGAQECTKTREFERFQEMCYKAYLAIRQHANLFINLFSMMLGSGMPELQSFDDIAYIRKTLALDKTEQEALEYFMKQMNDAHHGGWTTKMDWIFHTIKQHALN
UniProt Q9P286, sequence (whole entry, looked up): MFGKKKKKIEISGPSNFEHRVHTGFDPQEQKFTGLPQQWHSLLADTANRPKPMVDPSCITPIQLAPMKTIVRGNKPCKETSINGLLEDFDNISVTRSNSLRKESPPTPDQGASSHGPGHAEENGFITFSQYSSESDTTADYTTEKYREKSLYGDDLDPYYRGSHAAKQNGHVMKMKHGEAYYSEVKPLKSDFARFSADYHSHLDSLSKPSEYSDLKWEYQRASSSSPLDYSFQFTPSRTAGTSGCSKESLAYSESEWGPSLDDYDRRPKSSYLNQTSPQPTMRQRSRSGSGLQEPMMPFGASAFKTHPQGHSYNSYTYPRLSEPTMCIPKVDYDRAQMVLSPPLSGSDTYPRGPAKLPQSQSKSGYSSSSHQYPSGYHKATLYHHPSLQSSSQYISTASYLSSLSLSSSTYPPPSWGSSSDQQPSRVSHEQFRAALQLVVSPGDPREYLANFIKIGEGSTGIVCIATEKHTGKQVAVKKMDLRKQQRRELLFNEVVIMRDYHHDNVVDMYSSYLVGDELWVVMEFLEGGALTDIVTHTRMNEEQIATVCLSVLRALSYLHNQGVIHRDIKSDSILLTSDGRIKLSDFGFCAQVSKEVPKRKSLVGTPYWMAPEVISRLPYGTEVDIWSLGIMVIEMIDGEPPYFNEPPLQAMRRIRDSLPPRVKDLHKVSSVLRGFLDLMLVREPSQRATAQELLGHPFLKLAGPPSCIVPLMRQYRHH

Sample 1
SMILES: Cn1cncc1[C@](O)(COc1ccc(C#N)cc1-c1ccc(OC(F)(F)F)cc1)c1ccc(C#N)cc1
Read-out: cell-free assay
Technique: competition with immobilised ligand
Tested at: 1 µM
target	remaining binding [%]
Eukaryotic translation initiation factor 2-alpha kinase 1 (EIF2AK1, Homo sapiens, UniProt Q9BQI3)	100
Serine/threonine-protein kinase B-raf (BRAF, Homo sapiens, UniProt P15056)	84
Citron Rho-interacting kinase (CIT, Homo sapiens, UniProt O14578)	77
Dual specificity testis-specific protein kinase 1 (TESK1, Homo sapiens, UniProt Q15569)	100
Serine/threonine-protein kinase RIO1 (RIOK1, Homo sapiens, UniProt Q9BRS2)	72
Serine/threonine-protein kinase PAK 5 (PAK5, Homo sapiens, UniProt Q9P286)	94
Cyclin-dependent kinase-like 2 (CDKL2, Homo sapiens, UniProt Q92772)	88
Mast/stem cell growth factor receptor Kit (KIT, Homo sapiens, UniProt P10721, D816V)	85
Serine/threonine-protein kinase 24 (STK24, Homo sapiens, UniProt Q9Y6E0)	90
Epidermal growth factor receptor (EGFR, Homo sapiens, UniProt P00533, del752-759)	78
Serine/threonine-protein kinase BRSK2 (BRSK2, Homo sapiens, UniProt Q8IWQ3)	48
Protein kinase C delta type (PRKCD, Homo sapiens, UniProt Q05655)	66
Uncharacterized serine/threonine-protein kinase SBK3 (SBK3, Homo sapiens, UniProt P0C264)	100
Mitogen-activated protein kinase 3 (MAPK3, Homo sapiens, UniProt P27361)	90
Epidermal growth factor receptor (EGFR, Homo sapiens, UniProt P00533, G719S)	79
SRSF protein kinase 3 (SRPK3, Homo sapiens, UniProt Q9UPE1)	53
Ephrin type-A receptor 2 (EPHA2, Homo sapiens, UniProt P29317)	62
Fibroblast growth factor receptor 3 (FGFR3, Homo sapiens, UniProt P22607)	83
Serine/threonine-protein kinase BRSK1 (BRSK1, Homo sapiens, UniProt Q8TDC3)	73
Phosphatidylinositol 4,5-bisphosphate 3-kinase catalytic subunit alpha isoform (PIK3CA, Homo sapiens, UniProt P42336, E545A)	100
Death-associated protein kinase 2 (DAPK2, Homo sapiens, UniProt Q9UIK4)	82
Serine/threonine-protein kinase 38 (STK38, Homo sapiens, UniProt Q15208)	75

Sample 2
Cell line: HaCaT
Tested at: 100 µM
Time: 18 h
Structure (SMILES)	viability [%]
C[C@]12CC[C@H]3[C@@H](CCC4=CC(=O)CC[C@@]43C)[C@@H]1CC[C@@H]2O	89.8
COc1ccc(CN2CCNCC2)c(OC)c1OC	108
N#Cc1nn(-c2c(Cl)cc(C(F)(F)F)cc2Cl)c(N)c1[S+]([O-])C(F)(F)F (centres unmarked)	54.7

Sample 3
Compound: CCCCC[C@@H](O)CC(=O)N[C@H]1COC(=O)[C@H](CO)NC(=O)CNC(=O)[C@H]([C@@H](C)O)NC(=O)[C@H](Cc2ccccc2)NC(=O)[C@@H](Cc2c[nH]c3ccccc23)NC(=O)[C@@H]([C@H](C)O)NC(=O)[C@H](CC(N)=O)NC(=O)[C@@H]([C@H](C)O)NC(=O)[C@H](CC(C)C)NC(=O)[C@@H](Cc2c[nH]c3ccccc23)N(C)C(=O)CNC(=O)[C@H](CO)NC(=O)[C@@H](CO)NC1=O
Organism: Staphylococcus aureus
Strain: USA300
setting	MIC [µg/mL]
together with: menaquinone 8 µg/mL	> 64
together with: menaquinone 0.125 µg/mL	16 (≈ 9.59 µM)
together with: menaquinone 4 µg/mL	> 64
together with: menaquinone 16 µg/mL	> 64
together with: menaquinone 0.25 µg/mL	32 (≈ 19.2 µM)
together with: ubiquinone 0 µg/mL	8 (≈ 4.79 µM)

Sample 4
Target: Calcium/calmodulin-dependent protein kinase type II subunit alpha (CAMK2A, Homo sapiens, UniProt Q9UQM7)
UniProt Q9UQM7, sequence (whole entry, looked up): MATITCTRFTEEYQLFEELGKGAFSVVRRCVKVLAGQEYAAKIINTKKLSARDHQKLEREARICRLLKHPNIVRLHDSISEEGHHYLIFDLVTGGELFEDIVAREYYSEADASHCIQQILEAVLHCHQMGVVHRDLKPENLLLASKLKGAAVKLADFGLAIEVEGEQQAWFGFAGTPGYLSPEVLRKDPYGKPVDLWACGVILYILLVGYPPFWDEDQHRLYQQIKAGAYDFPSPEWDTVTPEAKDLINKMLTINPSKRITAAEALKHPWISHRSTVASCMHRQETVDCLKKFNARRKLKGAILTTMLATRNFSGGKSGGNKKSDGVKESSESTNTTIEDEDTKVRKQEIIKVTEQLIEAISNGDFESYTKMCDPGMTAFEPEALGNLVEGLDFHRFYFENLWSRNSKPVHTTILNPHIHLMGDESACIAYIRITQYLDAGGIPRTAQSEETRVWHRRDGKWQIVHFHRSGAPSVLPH
Read-out: enzyme activity
Action: inhibitor
Tested at: 10 µM
Compound	inhibition
C/C=C\c1cc(OC)c(OC)cc1OC	17%
CCCCc1ccc(C(=O)O)nc1	-7%
O=[N+]([O-])C(Br)(CO)CO	4%

Sample 5
Target: Eukaryotic initiation factor 4A-III (Homo sapiens, UniProt P38919)
UniProt P38919, sequence (whole entry, looked up): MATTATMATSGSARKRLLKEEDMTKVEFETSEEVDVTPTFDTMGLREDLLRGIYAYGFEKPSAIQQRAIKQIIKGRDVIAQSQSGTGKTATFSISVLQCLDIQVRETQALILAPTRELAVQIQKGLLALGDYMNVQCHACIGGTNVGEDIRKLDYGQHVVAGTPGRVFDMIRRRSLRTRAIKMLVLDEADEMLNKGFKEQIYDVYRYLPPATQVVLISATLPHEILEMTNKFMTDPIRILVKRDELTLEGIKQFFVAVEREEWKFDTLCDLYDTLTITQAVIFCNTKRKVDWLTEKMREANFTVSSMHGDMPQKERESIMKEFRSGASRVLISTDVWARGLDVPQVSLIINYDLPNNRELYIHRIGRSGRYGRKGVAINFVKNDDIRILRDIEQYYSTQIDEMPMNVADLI
Read-out: RNA clamping
Technique: fluorescence polarization
Tested at: concentration not given
Setting: mean of two replicates
Together with: FAM-labelled poly r(AG)8 RNA
Compound	fluorescence polarization change
COc1ccc([C@@]23Oc4cc(OC)cc(OC)c4[C@]2(O)c2nc4n(c(=O)c2[C@H]3c2ccccc2)CCCC4)cc1	25.4 mP
CCCCC1=N[C@@]2(O)[C@H](C(=O)OC)[C@@H](c3ccccc3)[C@]3(c4ccc(OC)cc4)Oc4cc(OC)cc(OC)c4[C@]23N1	38.6 mP
COc1ccc([C@@]23Oc4cc(OC)cc(OC)c4[C@]2(O)c2nc(-c4ccccc4)[nH]c(=O)c2[C@H]3c2ccccc2)cc1	4.7 mP
CONC(=O)[C@@H]1[C@@H](O)[C@@]2(O)c3c(OC)cc(OC)cc3O[C@@]2(c2ccc(Br)cc2)[C@H]1c1ccccc1	12.1 mP
COc1ccc([C@@]23Oc4cc(OC)cc(OC)c4[C@]2(O)c2nc(-c4ccc(N(C)C)cc4)[nH]c(=O)c2[C@H]3c2ccccc2)cc1	7.1 mP
COc1ccc(-c2nc3c(c(=O)[nH]2)[C@H](c2ccccc2)[C@@]2(c4ccc(OC)cc4)Oc4cc(OC)cc(OC)c4[C@@]32O)cc1	15.9 mP
COc1ccc([C@@]23Oc4cc(OC)cc(OC)c4[C@]2(O)c2nc4n(c(=O)c2[C@@H]3c2ccccc2)CCC4)cc1	10 mP
COc1ccc([C@@]23Oc4cc(OC)cc(OC)c4[C@]2(O)c2nc(-c4ccccc4)n(C)c(=O)c2[C@H]3c2ccccc2)cc1	18 mP
COC(=O)[C@H]1[C@@H](O)[C@@]2(O)c3c(OC)cc(OC)cc3O[C@@]2(c2ccc(OC)cc2)[C@@H]1c1ccccc1	46.7 mP and 22.5 mP

Single results of other studies
SMILES	system	setting	quantity	result
Cc1cccc(C)c1-n1nnnc1C1(N)CCC(C)CC1 (centres unmarked)	human, microsomes or S9	2 µM, 0.5 h	remaining compound	0.99%

Some of these lines once more (sample 5):
Compound	fluorescence polarization change
COc1ccc([C@@]23Oc4cc(OC)cc(OC)c4[C@]2(O)c2nc(-c4ccc(N(C)C)cc4)[nH]c(=O)c2[C@H]3c2ccccc2)cc1	7.1 mP
CONC(=O)[C@@H]1[C@@H](O)[C@@]2(O)c3c(OC)cc(OC)cc3O[C@@]2(c2ccc(Br)cc2)[C@H]1c1ccccc1	12.1 mP
CCCCC1=N[C@@]2(O)[C@H](C(=O)OC)[C@@H](c3ccccc3)[C@]3(c4ccc(OC)cc4)Oc4cc(OC)cc(OC)c4[C@]23N1	38.6 mP
COc1ccc([C@@]23Oc4cc(OC)cc(OC)c4[C@]2(O)c2nc(-c4ccccc4)n(C)c(=O)c2[C@H]3c2ccccc2)cc1	18 mP
COc1ccc([C@@]23Oc4cc(OC)cc(OC)c4[C@]2(O)c2nc(-c4ccccc4)[nH]c(=O)c2[C@H]3c2ccccc2)cc1	4.7 mP
COc1ccc(-c2nc3c(c(=O)[nH]2)[C@H](c2ccccc2)[C@@]2(c4ccc(OC)cc4)Oc4cc(OC)cc(OC)c4[C@@]32O)cc1	15.9 mP
COC(=O)[C@H]1[C@@H](O)[C@@]2(O)c3c(OC)cc(OC)cc3O[C@@]2(c2ccc(OC)cc2)[C@@H]1c1ccccc1	46.7 mP and 22.5 mP
